Assay results pooled from the literature.
Compare with care: the assays were run in different laboratories. Numbers after ± are the reported error.
CALCR: Calcitonin receptor (CALCR, Homo sapiens, UniProt P30988)
VHL/BRD9 with Elongin B/C: VHL/BRD9, with Elongin B/C (Homo sapiens, UniProt P40337+Q9H8M2)
VHL/BRD9: VHL/BRD9 (Homo sapiens, UniProt P40337+Q9H8M2)

For CC[C@H](C)[C@@H](C(=O)N[C@@H](CC(C)C)C(=O)N[C@@H](CO)C(=O)N[C@@H](CO)C(=O)N[C@H](C(=O)N[C@@H](CCC(=O)O)C(=O)N[C@H](C(=O)NCC(=O)N[C@@H](CO)C(=O)N[C@@H](CO)C(=O)N[C@H](C(=O)N1C[C@H](O)C[C@H]1C(N)=O)[C@@H](C)O)C(C)C)[C@@H](C)O)N(C)C(=O)[C@H](C)NC(=O)CN(C)C(=O)[C@H](Cc1ccccc1)NC(=O)[C@H](CO)NC(=O)[C@H](CO)NC(=O)[C@H](CCCNC(=N)N)NC(=O)[C@H](CCC(N)=O)NC(=O)[C@H](CC(C)C)NC(=O)[C@H](Cc1ccccc1)NC(=O)[C@H](Cc1c[nH]cn1)NC(=O)[C@H](C)NC(=O)[C@H](CC(C)C)NC(=O)[C@H](CCCNC(=N)N)NC(=O)[C@H](CCC(=O)O)NC(=O)[C@@H](NC(=O)[C@H](C)NC(=O)[C@@H]1CSSC[C@H](NC(=O)[C@H](CCCNC(=N)N)NC(=O)CC[C@H](NC(=O)CCCCCCCCCCCCCCCCCCC(=O)O)C(=O)O)C(=O)NCC(=O)N[C@@H]([C@@H](C)O)C(=O)N[C@@H](C)C(=O)N[C@@H]([C@@H](C)O)C(=O)N1)[C@@H](C)O, the EC50 was 0.00017 µM (CALCR; cAMP, agonist).
For O=C(c1cncc(-c2ccc3ncnc(Nc4ccc(OCc5cccc(F)c5)c(Cl)c4)c3c2)c1)N1CCOCC1, the EC50 was > 15 µM (Leishmania major; intracellular amastigote growth, luciferase; RAW264.7 macrophages).
For CC[C@H](C)[C@@H](C(=O)N[C@@H](CC(C)C)C(=O)N[C@@H](CO)C(=O)N[C@@H](CO)C(=O)N[C@H](C(=O)N[C@@H](CCC(=O)O)C(=O)N[C@H](C(=O)NCC(=O)N[C@@H](CO)C(=O)N[C@@H](CC(N)=O)C(=O)N[C@H](C(=O)N1C[C@H](O)C[C@H]1C(N)=O)[C@@H](C)O)C(C)C)[C@@H](C)O)N(C)C(=O)[C@H](C)NC(=O)CN(C)C(=O)[C@H](Cc1ccccc1)NC(=O)[C@H](CO)NC(=O)[C@H](CO)NC(=O)[C@H](CCCNC(=N)N)NC(=O)[C@H](CCC(N)=O)NC(=O)[C@H](CC(C)C)NC(=O)[C@H](Cc1ccccc1)NC(=O)[C@H](Cc1c[nH]cn1)NC(=O)[C@H](C)NC(=O)[C@H](CC(C)C)NC(=O)[C@H](CCCNC(=N)N)NC(=O)[C@H](CCC(=O)O)NC(=O)[C@@H](NC(=O)[C@H](C)NC(=O)[C@@H]1CC(=O)NCCC[C@H](NC(=O)[C@H](CCCNC(=N)N)NC(=O)CC[C@H](NC(=O)CCCCCCCCCCCCCCCCCCC(=O)O)C(=O)O)C(=O)NCC(=O)N[C@@H]([C@@H](C)O)C(=O)N[C@@H](C)C(=O)N[C@@H]([C@@H](C)O)C(=O)N1)[C@@H](C)O, the EC50 was 0.0813 µM (CALCR; cAMP, agonist).
The EC50 of O=C(Cc1ccc(OCc2ccccc2)cc1)NC1(C(=O)O)CCN(C(=O)c2ccc(-c3cccc(Cl)c3)cc2)CC1 is reported as > 10 µM (P2Y purinoceptor 12 (P2RY12, Homo sapiens, UniProt Q9H244); agonist, GloSensor cAMP).
Cc1ncc(CNc2nc(N3CC(CCOc4cc(-c5scnc5C)ccc4CNC(=O)[C@@H]4C[C@@H](O)CN4C(=O)[C@@H](NC(=O)C4(F)CC4)C(C)(C)C)C3)nc(N3CCC[C@H]3Cn3ccnn3)n2)c(N)n1 has an EC50 of 0.07 µM (VHL/BRD9 with Elongin B/C; ternary complex formation, AlphaScreen; together with: 50 nM His-BRD9 and 20 nM biotin-VCB).
CC[C@H](C)[C@@H](C(=O)N[C@@H](CC(C)C)C(=O)N[C@@H](CO)C(=O)N[C@@H](CO)C(=O)N[C@H](C(=O)N[C@@H](CC(N)=O)C(=O)N[C@H](C(=O)NCC(=O)N[C@@H](CO)C(=O)N[C@@H](CC(N)=O)C(=O)N[C@H](C(=O)N1CCC[C@H]1C(N)=O)[C@@H](C)O)C(C)C)[C@@H](C)O)N(C)C(=O)[C@H](C)NC(=O)CN(C)C(=O)[C@H](Cc1ccccc1)NC(=O)[C@H](CO)NC(=O)[C@H](CO)NC(=O)[C@H](Cc1c[nH]cn1)NC(=O)[C@H](Cc1c[nH]cn1)NC(=O)[C@H](CC(C)C)NC(=O)[C@H](Cc1ccccc1)NC(=O)[C@H](CCC(=O)O)NC(=O)[C@H](C)NC(=O)[C@H](CC(C)C)NC(=O)[C@H](CCCNC(=N)N)NC(=O)[C@H](CCC(N)=O)NC(=O)[C@@H](NC(=O)[C@H](C)NC(=O)[C@@H]1CSSC[C@H](NC(=O)[C@H](CCCNC(=N)N)NC(=O)CC[C@H](NC(=O)CCCCCCCCCCCCCCCCCCC(=O)O)C(=O)O)C(=O)N[C@@H](CC(N)=O)C(=O)N[C@@H]([C@@H](C)O)C(=O)N[C@@H](C)C(=O)N[C@@H]([C@@H](C)O)C(=O)N1)[C@@H](C)O has an EC50 of 7.24e-05 µM (CALCR; cAMP, agonist).
CC(C)(C)OCc1ccc(-c2ccc3ncnc(Nc4ccc(OCc5cccc(F)c5)c(Cl)c4)c3c2)cc1 has an EC50 of 4.1 µM (Leishmania major; intracellular amastigote growth, luciferase; RAW264.7 macrophages).
With CC(=O)NCC1CCCCN1c1nc(NCC2Cc3ccccc3O2)nc(N2CC3C(CCOc4cc(-c5scnc5C)ccc4CNC(=O)C4CC(O)CN4C(=O)C(NC(=O)C4(F)CC4)C(C)(C)C)C3C2)n1 (centres unmarked) the EC50 was 0.58 µM (VHL/BRD9 with Elongin B/C; ternary complex formation, AlphaScreen; together with: 50 nM His-BRD9 and 20 nM biotin-VCB).
The EC50 of CSCC[C@H](NC(=O)[C@H](CC(C)C)NC(=O)CNC(=O)[C@H](Cc1ccccc1)NC(=O)[C@H](Cc1ccccc1)NC(=O)[C@@H](N)CCC(N)=O)C(N)=O is reported as 0.00126 µM (TACR1 (Homo sapiens, UniProt P25103); calcium mobilization, Fura-2).
CNc1ncnc2c1ncn2C1OC(CO)C(O)C1O (centres unmarked) has an EC50 of 0.018 µM (ADORA3 (Homo sapiens, UniProt P0DMS8, V169L); G protein activation, agonist).
The EC50 of CC[C@H](C)[C@@H](C(=O)N[C@@H](CC(C)C)C(=O)N[C@@H](CO)C(=O)N[C@@H](CO)C(=O)N[C@H](C(=O)N[C@@H](CC(N)=O)C(=O)N[C@H](C(=O)NCC(=O)N[C@@H](CO)C(=O)N[C@@H](CC(N)=O)C(=O)N[C@H](C(=O)N1CCC[C@H]1C(N)=O)[C@@H](C)O)C(C)C)[C@@H](C)O)N(C)C(=O)[C@H](C)NC(=O)CN(C)C(=O)[C@H](Cc1ccccc1)NC(=O)[C@H](CC(N)=O)NC(=O)[C@H](CC(N)=O)NC(=O)[C@H](CO)NC(=O)[C@H](CO)NC(=O)[C@H](CCCNC(=N)N)NC(=O)[C@H](Cc1c[nH]cn1)NC(=O)[C@H](CC(C)C)NC(=O)[C@H](Cc1ccccc1)NC(=O)[C@H](CCC(=O)O)NC(=O)[C@H](C)NC(=O)[C@H](CC(C)C)NC(=O)[C@H](CCCNC(=N)N)NC(=O)[C@H](CCC(N)=O)NC(=O)[C@@H](NC(=O)[C@H](C)NC(=O)[C@@H]1CSSC[C@H](NC(=O)[C@H](CCCNC(=N)N)NC(=O)CC[C@H](NC(=O)CCCCCCCCCCCCCCCCCCC(=O)O)C(=O)O)C(=O)N[C@@H](CC(N)=O)C(=O)N[C@@H]([C@@H](C)O)C(=O)N[C@@H](C)C(=O)N[C@@H]([C@@H](C)O)C(=O)N1)[C@@H](C)O is reported as 7.94e-05 µM (CALCR; cAMP, agonist).
Cc1ncsc1-c1ccc(CNC(=O)[C@@H]2C[C@@H](O)CN2C(=O)[C@@H](NC(=O)C2(F)CC2)C(C)(C)C)c(OCCC2CCN(c3nc(NCC(C)(C)C4(O)CCOC4)nc(N4CCC[C@H]4Cn4ccnn4)n3)CC2)c1 (some centres unmarked) gave an EC50 of 0.051 µM (VHL/BRD9; ternary complex formation, NanoBiT; HEK293T; 2 h, together with: MLN4924 2 µM).
O=C(NC[C@@H](Cc1ccc(F)cc1)N1CCC(O)(C(F)(F)F)CC1)C1(c2ccc(Cl)cc2)CCCC1 gave an EC50 of 0.0073 µM (TRPA1 (Homo sapiens, UniProt O75762); calcium signal, agonist).
The EC50 of CC(C)Oc1cc(Cl)ccc1CNc1cc(-c2ccccc2)nc2ncnn12 is reported as 2.62 µM (GPR3 (Homo sapiens, UniProt P46089, L136A); cAMP level, agonist; FLAG-10xHis tagged).
O=Cc1ccc([N+](=O)[O-])c(OS(=O)(=O)c2ccc(Cl)cc2)c1 gave an EC50 of > 1000 µM (YWHAG/RELA, phospho-Ser45 p65 peptide (Homo sapiens, UniProt P61981+Q04206); ternary complex formation, stabilizer, fluorescence anisotropy).
With C#CCN1CCN(c2nc(N3CCC(CCOc4cc(-c5scnc5C)ccc4CNC(=O)[C@@H]4C[C@@H](O)CN4C(=O)[C@@H](NC(=O)C4(F)CC4)C(C)(C)C)CC3)nc(N3CCN(C(=O)C4CC4)C3)n2)CC1=O the EC50 was 0.029 µM (VHL/BRD9; ternary complex formation, NanoBiT; HEK293T; 2 h, together with: MLN4924 2 µM).
With CC[C@H](C)[C@@H](C(=O)N[C@@H](CC(C)C)C(=O)N[C@@H](CO)C(=O)N[C@@H](CO)C(=O)N[C@H](C(=O)N[C@@H](CCC(=O)O)C(=O)N[C@H](C(=O)NCC(=O)N[C@@H](CO)C(=O)N[C@@H](CC(N)=O)C(=O)N[C@H](C(=O)N1C[C@H](O)C[C@H]1C(N)=O)[C@@H](C)O)C(C)C)[C@@H](C)O)N(C)C(=O)[C@H](C)NC(=O)CN(C)C(=O)[C@H](Cc1ccccc1)NC(=O)[C@H](CO)NC(=O)[C@H](CO)NC(=O)[C@H](CCCNC(=N)N)NC(=O)[C@H](CCC(N)=O)NC(=O)[C@H](CC(C)C)NC(=O)[C@H](Cc1ccccc1)NC(=O)[C@H](Cc1c[nH]cn1)NC(=O)[C@H](C)NC(=O)[C@H](CC(C)C)NC(=O)[C@H](CCCNC(=N)N)NC(=O)[C@H](CCC(=O)O)NC(=O)[C@@H](NC(=O)[C@H](C)NC(=O)[C@@H]1CCCNC(=O)C[C@H](NC(=O)[C@H](CCCNC(=N)N)NC(=O)CC[C@H](NC(=O)CCCCCCCCCCCCCCCCCCC(=O)O)C(=O)O)C(=O)NCC(=O)N[C@@H]([C@@H](C)O)C(=O)N[C@@H](C)C(=O)N[C@@H]([C@@H](C)O)C(=O)N1)[C@@H](C)O the EC50 was 0.00148 µM (CALCR; cAMP, agonist).
CCc1cc(O)cc2c(/C=N/NC(=N)NCCc3ccc(Cl)cc3)c[nH]c12 gave an EC50 of 0.00309 µM (RXFP4 (Homo sapiens, UniProt Q8TDU9, L118S); agonist).
The EC50 of CCCCCCCCCCCCCCCC(=O)OCC(CSC[C@H](N)C(=O)N[C@@H](CO)C(=O)N[C@@H](CCCCN)C(=O)N[C@@H](CCCCN)C(=O)N[C@@H](CCCCN)C(=O)N[C@@H](CCCCN)C(=O)O)OC(=O)CCCCCCCCCCCCCCC (some centres unmarked) is reported as 1e-05 ± 4e-06 µM (TLR2 (Homo sapiens, UniProt O60603); reporter gene, agonist; HEK-Blue hTLR2 cells).
For COc1ccc2[nH]c(-c3cccc4ccccc34)c(CCNC(=O)CI)c2n1, the EC50 was 0.000646 µM (MTNR1B (Homo sapiens, UniProt P49286); GTPγS binding, agonist, radiometric; cell membranes).

Some of these lines once more:
O=Cc1ccc([N+](=O)[O-])c(OS(=O)(=O)c2ccc(Cl)cc2)c1 gave an EC50 of > 1000 µM (YWHAG/RELA, phospho-Ser45 p65 peptide (Homo sapiens, UniProt P61981+Q04206); ternary complex formation, stabilizer, fluorescence anisotropy).
The EC50 of CC[C@H](C)[C@@H](C(=O)N[C@@H](CC(C)C)C(=O)N[C@@H](CO)C(=O)N[C@@H](CO)C(=O)N[C@H](C(=O)N[C@@H](CC(N)=O)C(=O)N[C@H](C(=O)NCC(=O)N[C@@H](CO)C(=O)N[C@@H](CC(N)=O)C(=O)N[C@H](C(=O)N1CCC[C@H]1C(N)=O)[C@@H](C)O)C(C)C)[C@@H](C)O)N(C)C(=O)[C@H](C)NC(=O)CN(C)C(=O)[C@H](Cc1ccccc1)NC(=O)[C@H](CC(N)=O)NC(=O)[C@H](CC(N)=O)NC(=O)[C@H](CO)NC(=O)[C@H](CO)NC(=O)[C@H](CCCNC(=N)N)NC(=O)[C@H](Cc1c[nH]cn1)NC(=O)[C@H](CC(C)C)NC(=O)[C@H](Cc1ccccc1)NC(=O)[C@H](CCC(=O)O)NC(=O)[C@H](C)NC(=O)[C@H](CC(C)C)NC(=O)[C@H](CCCNC(=N)N)NC(=O)[C@H](CCC(N)=O)NC(=O)[C@@H](NC(=O)[C@H](C)NC(=O)[C@@H]1CSSC[C@H](NC(=O)[C@H](CCCNC(=N)N)NC(=O)CC[C@H](NC(=O)CCCCCCCCCCCCCCCCCCC(=O)O)C(=O)O)C(=O)N[C@@H](CC(N)=O)C(=O)N[C@@H]([C@@H](C)O)C(=O)N[C@@H](C)C(=O)N[C@@H]([C@@H](C)O)C(=O)N1)[C@@H](C)O is reported as 7.94e-05 µM (CALCR; cAMP, agonist).
